Experimental data of several laboratories.
Each line is one published result; not all experiments were run side by side. Several values in a cell are separate wells, animals, samples, runs or records. ± marks the error that the study gave.
Nuclear receptor subfamily 2 group C member 2 ligand-binding domain: Nuclear receptor subfamily 2 group C member 2, ligand-binding domain (Homo sapiens, UniProt P49116)

COc1cccc(OC[C@@H]2CN(CC(=O)N3CCc4ccccc43)CCO2)c1 — inhibition (HTR1A (Homo sapiens, UniProt P08908); radioligand binding; concentration not given, with: [3H]8-OH-DPAT): 91.3%
O=C1c2cccc(O)c2C(=O)c2c(O)cc(CO)cc21 — cell viability (HepaRG co-cultured with HK-2; MTT; 133.33 µM, 24 h; baseline: untreated control): 115 ± 7.3%
CC(C)NC[C@H](O)COc1ccc(CCOCC2CC2)cc1.Cl — koff (Nuclear receptor subfamily 2 group C member 2 ligand-binding domain; SPR imaging; 600 nM): 1.24e-07 s⁻¹
Nc1ncnc2c1ncn2[C@@H]1O[C@H](COP(=O)(O)CP(=O)(O)OP(=O)(O)O)[C@@H](O)[C@H]1O — specific binding (P2X purinoceptor 1 (P2RX1, Homo sapiens, UniProt P51575, L218T); saturation binding; HEK293; 103 nM): 4670 CCPM and 4350 CCPM
O=C1OC(c2ccccc2)=N/C1=C\c1ccccc1O — Vmax (Pancreatic alpha-amylase (Homo sapiens, UniProt P04746); inhibitor, Lineweaver-Burk; 100 ppm, with: starch substrate): 0.06 mg/mL/min
Nc1ncnc2c1ncn2[C@@H]1O[C@H](COP(=O)(O)OP(=O)(O)OP(=O)(O)O)[C@@H](O)[C@H]1O — normalized current (P2X purinoceptor 7 (P2rx7, Rattus norvegicus, UniProt Q64663); ion current, two-electrode voltage clamp; Xenopus laevis oocytes; 333 µM): 1 and 0.95 and 0.93
Nc1nc2c(ncn2[C@@H]2O[C@H](COP(=O)(O)O)[C@@H](O)[C@H]2O)c(=O)[nH]1 — reaction velocity (GUK1 (Homo sapiens, UniProt Q16774); enzyme activity, NADH-coupled; 125 µM, with: NaCl 150 mM): 0.0713 µM/s and 0.074 µM/s and 0.0442 µM/s
CC(Nc1nc(N2CCCC2)nc2ccccc12)c1ccccc1 (stereo not shown) — cells with nuclear reporter (Exportin-1 (XPO1, Homo sapiens, UniProt O14980); nuclear export, high content imaging; HeLa Kyoto reporter; 3.17 µM, 2 h): 1.42% and 5.32% and 3.37%
COCCC(=O)N1CCC(Oc2ccccc2)C1 (stereo not shown) — fold enrichment (E3 SUMO-protein ligase PIAS1 (PIAS1, Homo sapiens, UniProt O75925); binding, affinity selection mass spectrometry; baseline: other proteins in batch): 1.13
NCCCCC(=O)O — normalised MST signal (SLC6A6 (Homo sapiens, UniProt P31641, G62A); binding, microscale thermophoresis; 244 nM, room temperature, with: 50 nM labelled protein; higher = more binding): 0.0377
CC[C@@H]1[C@H](F)C(=O)N[C@@H]1COc1nccc2cc(C(N)=O)c(OC)cc12 — inhibition (CDK14 (Homo sapiens, UniProt O94921); ATP probe binding, KiNativ profiling, item: Lys2 probe site; THP-1 cell lysate; 0.01 mM): -16.8%
CC1(C)CC2(C)OC(=O)NC2(C)c2ccccc21 (stereo not shown) — fold enrichment (S-phase kinase-associated protein 1 (SKP1, Homo sapiens, UniProt P63208); binding, affinity selection mass spectrometry; baseline: other proteins in batch): 0.948
O=C(O)c1cc(/N=N/c2ccc(S(=O)(=O)Nc3ccccn3)cc2)ccc1O — koff (Nuclear receptor subfamily 2 group C member 2 ligand-binding domain; SPR imaging; 600 nM): 8e-08 s⁻¹
CC(C)C[C@@H]1NC(=O)[C@H](C)NC(=O)CNC(=O)[C@H](CC(N)=O)NC(=O)[C@@H]2CCCN2C(=O)[C@H](Cc2ccc(O)cc2)NC(=O)[C@H](CCCNC(=N)N)NC(=O)[C@H](Cc2ccccc2)NC(=O)[C@@H](NC(=O)[C@H](CCCCN)NC(=O)[C@@H]2CCCN2C(=O)[C@H](CO)NC(=O)[C@H](C)NC(=O)[C@@H](N)Cc2ccc(O)cc2)CSSC[C@@H](C(=O)N[C@H](C(N)=O)[C@@H](C)O)NC(=O)[C@H](C)NC1=O — -TΔS (Alpha-2-HS-glycoprotein, asialo (AHSG, Bos taurus, UniProt P12763); binding, isothermal titration calorimetry; pH 7.0, 25 °C, with: asialofetuin): -0.295 kcal/mol
Nc1ncnc2c1ncn2[C@@H]1O[C@H](COP(=O)(O)OP(=O)(O)OP(=O)(O)O)[C@@H](O)[C@H]1O — concentration for complete inhibition (ATP-sensitive inward rectifier potassium channel 1 (Rattus norvegicus, UniProt P35560); channel activity, inhibitor, inside-out patch clamp; pH 7.4, Mg2+-free, no second inhibitory nucleotide): 1 mM
Cc1cc(O)c2c(c1)C(=O)c1cccc(O)c1C2=O — cell viability (HepaRG co-cultured with HK-2; MTT; 33.33 µM, 24 h; baseline: untreated control): 96.1 ± 11%
CCN(CCO)CCCC(C)Nc1ccnc2cc(Cl)ccc12 (stereo not shown) — activation slope factor (SCN5A (Homo sapiens, UniProt Q14524); sodium current, whole-cell patch clamp; 100 µM, without ATX-II): 2.09 mV/e-fold and 3.68 mV/e-fold and 5.23 mV/e-fold
CCc1cc(C(=O)NC)c2nccc(N3CCc4c(cc(Cn5ccnc5)cc4-c4cn(C)nc4C(F)(F)F)C3=O)c2c1 — AUC(0-last) (Sprague Dawley rat, male, plasma; oral, 50 mg/kg once daily, 7 days, toxicokinetic satellite group): 14400 ng·h/mL
Clc1ccc(C(c2c[nH]c3ccccc23)c2c[nH]c3ccccc23)cc1 — apoptotic cells (COS-7; 30 µM, 24 h, 0.1% DMSO, unit not given; baseline: vehicle control): 7.1 ± 1.57

For quick reference, copied from above:
O=C(O)c1cc(/N=N/c2ccc(S(=O)(=O)Nc3ccccn3)cc2)ccc1O — koff (Nuclear receptor subfamily 2 group C member 2 ligand-binding domain; SPR imaging; 600 nM): 8e-08 s⁻¹
CC(Nc1nc(N2CCCC2)nc2ccccc12)c1ccccc1 (stereo not shown) — cells with nuclear reporter (Exportin-1 (XPO1, Homo sapiens, UniProt O14980); nuclear export, high content imaging; HeLa Kyoto reporter; 3.17 µM, 2 h): 1.42% and 5.32% and 3.37%
